Results of several laboratories.
Each line is one published result; not all experiments were run side by side. Several values in a cell are separate wells, animals, samples, runs or records. Numbers after ± are the reported error.

O=C(NCC1OC2CCC=CCCC2O1)c1ccc(F)nc1 (stereo not shown)  observed rate constant kobs (IEDDA cycloaddition, substrate, stopped-flow spectrophotometry; water/methanol 45:55; 1 mM, 298 K, added: 3,6-di(2-pyridyl)-tetrazine 0.05 mM): 233 ± 8.16 s⁻¹
N[C@@H](CNC(=O)N[C@@H](CS)C(=O)NCC(=O)O)C(=O)O  Iba-1 immunoreactivity (mouse C57BL/6, brain; intranasal, dose not given; baseline: saline i.c.v.): decreased
CC(C)(C)NCC(SS(=O)(=O)O)c1ccccc1 (stereo not shown)  spleen weight (Swiss Webster mice, Schistosoma mansoni-infected; 100 mg/kg x 2 doses from day 42 post-infection, perfusion day 56 post-infection): 0.66 g
Cc1cc(C)cc(NC(=O)CCN2CCCCCC2)c1  third-quartile larval motion (locomotor activity in dark; Danio rerio larvae, 7 dpf, well of 10 larvae; 10 µM, minute 1, dark): 10.8 ± 2.4 pixels/frame
CC[C@H](C)[C@@H](C(=O)N[C@@H](CC(C)C)C(=O)N[C@@H](CO)C(=O)N[C@@H](CO)C(=O)N[C@H](C(=O)N[C@@H](CCC(=O)O)C(=O)N[C@H](C(=O)NCC(=O)N[C@@H](CO)C(=O)N[C@@H](CC(N)=O)C(=O)N[C@H](C(=O)N1C[C@H](O)C[C@H]1C(N)=O)[C@@H](C)O)C(C)C)[C@@H](C)O)N(C)C(=O)[C@H](C)NC(=O)CN(C)C(=O)[C@H](Cc1ccccc1)NC(=O)[C@H](CO)NC(=O)[C@H](CO)NC(=O)[C@H](CCCNC(=N)N)NC(=O)[C@H](CCC(N)=O)NC(=O)[C@H](CC(C)C)NC(=O)[C@H](Cc1ccccc1)NC(=O)[C@H](CCCC(=O)O)NC(=O)[C@H](C)NC(=O)[C@H](CC(C)C)NC(=O)[C@H](CCCNC(=N)N)NC(=O)[C@H](CCC(=O)O)NC(=O)[C@@H](NC(=O)[C@H](C)NC(=O)[C@@H]1CCCCNC(=O)C[C@H](NC(=O)[C@H](CCCNC(=N)N)NC(=O)CC[C@H](NC(=O)CCCCCCCCCCCCCCCCCCC(=O)O)C(=O)O)C(=O)NCC(=O)N[C@@H]([C@@H](C)O)C(=O)N[C@@H](C)C(=O)N[C@@H]([C@@H](C)O)C(=O)N1)[C@@H](C)O  body weight change (diet-induced obese rats; subcutaneous, 15 nmol/kg every other day, day 20; baseline: day 0): 4.4%
CC(CCC(=O)NCc1ccc(C(=O)NO)cc1)C1CCC2C3C(O)CC4CC(O)CCC4(C)C3CCC12C (stereo not shown)  relative abundance (refers to: TUDCA; PCK rat (Pkhd1 mutant), bile; oral gavage, dose not given, 5 months; baseline: total bile acids): 10.3%
OO  dead cells (pancreatic islet cells, mouse; 125 µM, 24 h): 95.4%
COc1cc([C@@H]2O[C@@H](c3cc(OC)c(O[C@@H]4O[C@H](CO)[C@@H](O)[C@H](O)[C@H]4O)c(OC)c3)[C@H](CO)[C@H]2CO)cc(OC)c1O  lipid accumulation (Oil Red O; 3T3-L1, mouse; 5 µM, day 8; baseline: vehicle): 43.4 ± 2.48%
CCOC(=O)NN  normalised absorbance (hydrazine ligation kinetics, absorbance; concentration not given, 10 s, added: 2-formylphenylboronic acid): 0.414
CC(=O)[O-].O.[Cu+2].[O-]c1ccc(Br)cc1C=NCCN1CCOCC1  inhibition (nitric oxide scavenging; 200 µM): 43.5%
Cc1cc(NC(=O)CCN2CCCCC2)ccc1Br  third-quartile larval motion (locomotor activity in dark; Danio rerio larvae, 7 dpf, well of 10 larvae; 10 µM, minute 5, dark): 1.8 ± 0.7 pixels/frame
CC1Cc2ccccc2N1C(=O)CN1CCN(Cc2ccccc2)CC1 (stereo not shown)  time in open area (zero maze; PC7-WT mice; 1 mg/kg; baseline: vehicle): increased
COCCNCCOc1cc(C)cc(C(C)C)c1  third-quartile larval motion (locomotor activity in dark; Danio rerio larvae, 7 dpf, well of 10 larvae; 10 µM, minute 5, dark): 6.8 ± 0.8 pixels/frame
O=C(CCO)c1ccc(O)cc1  radical scavenging (ABTS radical; 300 µg/mL): 42.2 ± 1.3%
Cc1ccc(S(=O)(=O)NN)cc1  normalised absorbance (hydrazine ligation kinetics, absorbance; concentration not given, 25 s, added: 2-formylphenylboronic acid): 0.828
CCCCCCCCCCCCCCCC(=O)OCC(CSC[C@H](N)C(=O)N[C@@H](CO)C(=O)N[C@@H](CCCCN)C(=O)N[C@@H](CCCCN)C(=O)N[C@@H](CCCCN)C(=O)N[C@@H](CCCCN)C(=O)NCCCCCC(=O)N[C@@H](CCCCN)C(=O)N[C@@H](CC(C)C)C(=O)N[C@H](C(=O)N[C@@H](Cc1ccccc1)C(=O)N[C@@H](Cc1ccccc1)C(=O)N[C@@H](Cc1ccc2ccccc2c1)C(=O)O)C(C)C)OC(=O)CCCCCCCCCCCCCCC (stereo partly shown)  Aβ plaque density (thioflavin S staining; APP/PS1 transgenic mouse, cortex; intracortical injection, dose not given, 5 d): 89.4 /mm2 and 80.8 /mm2 and 88 /mm2 and 84.8 /mm2
COc1ccccc1C1NCCc2cc(O)c(O)cc21 (stereo not shown)  IC50 (DPPH scavenging, absorbance; 30 min, dark): 27.4 µM
COc1ccc(NC(=O)c2ccc3[nH]c(-c4ccc(N(C)C)cc4)nc3c2)cn1  tumour volume (Lewis lung carcinoma, mice, syngeneic graft, subcutaneous; intraperitoneal, 50 mg/kg daily, day 7): 42.2 mm3 and 237 mm3 and 224 mm3 and 246 mm3 and 197 mm3
C=CC(=O)N1CC2C(=O)N(CCN(C)C)c3c(c4cc(Cl)c(-c5c(O)cccc5F)nc4n(-c4c(C)ccnc4C(C)C)c3=O)N2CC1C (stereo not shown)  Ki-67 level (immunohistochemistry; BALB/c nude mouse, H358-Luc intracranial tumour, brain tissue; 100 mg/kg, 21 days): decreased
CCOC(=O)C1=C(CSC2=NCCS2)NC(=O)NC1c1ccccc1 (stereo not shown)  IC50 (DPPH scavenging): 37.8 µM
CC[C@H](C)[C@@H](C(=O)N[C@@H](CC(C)C)C(=O)N[C@@H](CO)C(=O)N[C@@H](CO)C(=O)N[C@H](C(=O)N[C@@H](CCC(=O)O)C(=O)N[C@H](C(=O)NCC(=O)N[C@@H](CO)C(=O)N[C@@H](CC(N)=O)C(=O)N[C@H](C(=O)N1C[C@H](O)C[C@H]1C(N)=O)[C@@H](C)O)C(C)C)[C@@H](C)O)N(C)C(=O)[C@H](C)NC(=O)CN(C)C(=O)[C@H](Cc1ccccc1)NC(=O)[C@H](CO)NC(=O)[C@H](CO)NC(=O)[C@H](CCCNC(=N)N)NC(=O)[C@H](CCC(N)=O)NC(=O)[C@H](CC(C)C)NC(=O)[C@H](Cc1ccccc1)NC(=O)[C@H](CC(=O)O)NC(=O)[C@H](C)NC(=O)[C@H](CC(C)C)NC(=O)[C@H](CCCNC(=N)N)NC(=O)[C@H](CCC(N)=O)NC(=O)[C@@H](NC(=O)[C@H](C)NC(=O)[C@@H]1CSSC[C@H](NC(=O)[C@H](CCCNC(=N)N)NC(=O)CC[C@H](NC(=O)CCCCCCCCCCCCCCCCCCC(=O)O)C(=O)O)C(=O)N[C@@H](CC(N)=O)C(=O)N[C@@H]([C@@H](C)O)C(=O)N[C@@H](C)C(=O)N[C@@H]([C@@H](C)O)C(=O)N1)[C@@H](C)O  body weight loss (male Sprague-Dawley rats; subcutaneous, 30 nmol/kg single dose, 96 h): 10.8 ± 0.4%
COC1CN([C@H]2CC[C@H]([C@@]3(C)Oc4c(Cl)cc(C(=O)NCc5c(SC)cc(C)[nH]c5=O)c(C)c4O3)CC2)C1  log2 fold change (RNA-seq, refers to: RFX2 mouse homolog; mouse, HT-1376 xenograft, whole blood; dose not given; baseline: vehicle): 0.511
Cc1ccc(NC(=O)CCN2CCCCCC2)cc1C  third-quartile larval motion (locomotor activity in dark; Danio rerio larvae, 7 dpf, well of 10 larvae; 10 µM, minute 7, dark): 0.7 ± 0.4 pixels/frame
O=Cc1ccc(CO)n1Cc1ccc(O)cc1  radical scavenging (DPPH radical; 300 µg/mL): 44.9 ± 1.35%
NNC(=O)Cc1ccccc1  normalised absorbance (hydrazine ligation kinetics, absorbance; concentration not given, 10 s, added: 2-formylphenylboronic acid): 0.246
CCC(=O)N[C@@H](C)C(=O)OCC(=O)N[C@@H](C)C(=O)O  chain scission rate constant (water; pH 4, 50 °C): 0.0025 h⁻¹
O=C(NC[C@@H]1O[C@H]2CC/C=C/CC[C@H]2O1)c1ccc(COCCOCCOCCF)cc1  observed rate constant kobs (IEDDA cycloaddition, substrate, stopped-flow spectrophotometry; water/methanol 45:55; 0.25 mM, 298 K, added: methyltetrazine-NHS 0.05 mM): 0.38 ± 0.000879 s⁻¹
CN1CCC[C@]1(C)/C=C/S(=O)(=O)NC(=O)Nc1c2c(cc3c1CCC3)CCC2  IL-18 inhibition (human, whole blood ex vivo; 100 mg single dose, 6 h, single ascending dose, added: LPS and ATP): 130%
COc1ccc(C(=O)CCc2cc(C(CCc3ccc(O)cc3OC)c3ccc(O)cc3)c(O)cc2OC)cc1 (racemic)  amount (refers to: 12-HEPE; human whole blood; 10 µM, added: A23187): 215 ± 72 pg/mL blood
Cc1ccc(C)c(OCC(O)CN2CCN(c3cc(Cl)ccc3C)CC2)c1 (stereo not shown)  third-quartile larval motion (locomotor activity in dark; Danio rerio larvae, 7 dpf, well of 10 larvae; 10 µM, minute 7, dark): 0 pixels/frame
Cc1ncsc1-c1ccc(C(C)NC(=O)C2CC(O)CN2C(=O)C(NC(=O)CCCCCCCCCCN2CCCC(Nc3ncc(Cl)c(Nc4ccccc4S(=O)(=O)C(C)C)n3)C2)C(C)(C)C)cc1 (stereo not shown)  log2 fold change (22Rv1; RNA-seq, refers to: ZNF776 mRNA; concentration not given; baseline: DMSO): -1.29
COc1ccccc1-c1ccncc1C(=O)Nc1nnc(OCc2ccc(Cl)cc2)s1  colony survival (Brca1 Δ11/Δ11 Polq-/- MEFs, mouse; 5 µM): 92% and 70% and 92.4% and 87.8% and 86.2% and 89.1%
Cc1cccc(NC(=O)CCN2CCN(C/C=C/c3ccccc3)CC2)c1  third-quartile larval motion (locomotor activity in dark; Danio rerio larvae, 7 dpf, well of 10 larvae; 10 µM, minute 1, dark): 0.8 ± 0.4 pixels/frame
CCOC(=O)CCCCC1NCCc2ccc(O)c(O)c21 (stereo not shown)  IC50 (DPPH scavenging, absorbance; 30 min, dark): 7.64 µM

A few entries again:
O=Cc1ccc(CO)n1Cc1ccc(O)cc1  radical scavenging (DPPH radical; 300 µg/mL): 44.9 ± 1.35%
CC(=O)[O-].O.[Cu+2].[O-]c1ccc(Br)cc1C=NCCN1CCOCC1  inhibition (nitric oxide scavenging; 200 µM): 43.5%
CCOC(=O)CCCCC1NCCc2ccc(O)c(O)c21 (stereo not shown)  IC50 (DPPH scavenging, absorbance; 30 min, dark): 7.64 µM
COCCNCCOc1cc(C)cc(C(C)C)c1  third-quartile larval motion (locomotor activity in dark; Danio rerio larvae, 7 dpf, well of 10 larvae; 10 µM, minute 5, dark): 6.8 ± 0.8 pixels/frame
Cc1ccc(NC(=O)CCN2CCCCCC2)cc1C  third-quartile larval motion (locomotor activity in dark; Danio rerio larvae, 7 dpf, well of 10 larvae; 10 µM, minute 7, dark): 0.7 ± 0.4 pixels/frame
